{"data": "Results of several laboratories", "note": "Each line is one published result; not all experiments were run side by side. ± gives the spread as reported."}
{"Compound": "CC(C)=CCc1cc(-c2coc3cc(O)c(CC=C(C)C)c(O)c3c2=O)ccc1O", "cell line": "A549", "test": "cell growth or viability, MTT", "setting": "25 µg/mL", "measurement": "viability", "value": "108%"}
{"Compound": "CCCN(CC(=O)N(CCC)CC(=O)N(CCC)CC(=O)N(CCC)CC(=O)N(CC(=O)N(CCC)CC(=O)N(CCC)CC(=O)N(CCC)CC(=O)N(CCC)CC(=O)N(CC(=O)N(CCC)CC(=O)N(CCC)CC(=O)N(CCC)CC(=O)N(CCC)CC(=O)N(CC(N)=O)Cc1cn(CCCNC(=O)CCCOc2cccc(-c3nc4ccc(-c5nc6ccc(N7CCN(C)CC7)cc6[nH]5)cc4[nH]3)c2)nn1)Cc1cn(CCCNC(=O)CCCOc2cccc(-c3nc4ccc(-c5nc6ccc(N7CCN(C)CC7)cc6[nH]5)cc4[nH]3)c2)nn1)Cc1cn(CCCNC(=O)CCCOc2cccc(-c3nc4ccc(-c5nc6ccc(N7CCN(C)CC7)cc6[nH]5)cc4[nH]3)c2)nn1)C(=O)CNCc1cn(CCCNC(=O)CCCOc2cccc(-c3nc4ccc(-c5nc6ccc(N7CCN(C)CC7)cc6[nH]5)cc4[nH]3)c2)nn1", "cell line": "C2C12", "test": "flow cytometry", "setting": "5 µM, 14 h", "measurement": "ligand- and PI-positive cells", "value": "13%"}
{"Compound": "C#Cc1cn([C@@H]2O[C@H](CO)C[C@H]2O)c2ncnc(N)c12", "cell line": "MRC-5 SV2", "test": "cytotoxicity, resazurin", "test system": "medium with 5% FBS", "setting": "72 h", "measurement": "EC50", "value": "1.29 ± 0.56 µM"}
{"Compound": "c1cc2nc(-c3ccc(-c4nc5ccc(C6=NCCN6)cc5[nH]4)[se]3)[nH]c2cc1C1=NCCN1", "cell line": "HEK293 cells", "test": "viability, resazurin reduction", "setting": "24 h, 10% fetal bovine serum", "scale": "up to", "measurement": "maximum non-toxic concentration", "value": "> 10 µM"}
{"Compound": "O=C1c2ccccc2C2(c3ccc(O)cc3Oc3cc(O)ccc32)N1CCS(=O)(=O)O", "cell line": "ARPE-19 monolayer", "setting": "100 µM, 360 min, apical to basolateral", "measurement": "Papp", "value": "7.72 ± 1.13 ×10⁻⁶ cm/s"}
{"Compound": "N=C(N)NCC[C@@H]1NC(=O)[C@H](CCNC(=N)N)NC(=O)[C@H](CCNC(=N)N)NC(=O)[C@H](C(c2ccccc2)c2ccccc2)NC(=O)[C@H](Cc2c[nH]c3ccccc23)NC(=O)[C@H](C(c2ccccc2)c2ccccc2)NC(=O)[C@H](CCNC(=N)N)NC1=O", "cell line": "human red blood cells", "test": "hemolysis", "measurement": "HC50", "value": "190 µg/mL"}
{"Compound": "CC1(C)CCCC(C)(C2CCC3(C)C2C(O)CC2C4(C)CCC(O)C(C)(C)C4C(OC(=O)/C=C\\c4ccc(Cl)cc4)CC23C)O1 (centres unmarked)", "cell line": "Hep3B", "test": "cell growth or viability, MTT", "setting": "24 h", "measurement": "IC50", "value": "> 30 µM"}
{"Compound": "COC(=O)C1CN1S(=O)(=O)c1ccc2cc(N(C)C)ccc2c1 (centres unmarked)", "cell line": "Balb/c 3T3 fibroblasts", "test": "cytotoxicity, neutral red uptake", "test system": "DMEM with 5% FBS", "setting": "24 h", "measurement": "IC50", "value": "38 ± 2 µM"}
{"Compound": "CC1(C)CCCC(C)(C2CCC3(C)C2C(O)CC2C4(C)CCC(OC(=O)NCc5ccccc5)C(C)(C)C4C(OC(=O)NCc4ccccc4)CC23C)O1 (centres unmarked)", "cell line": "Hep3B", "test": "cell growth or viability, MTT", "setting": "24 h", "measurement": "IC50", "value": "> 30 µM"}
{"Compound": "CC(=O)N[C@H](C(=O)N[C@H](C(=O)N[C@@H](CCCNC(=N)N)C(=O)N1Cc2ccccc2C[C@H]1C(=O)N[C@@H](Cc1ccccc1)C(N)=O)C1CCCCC1)C(C)C", "cell line": "human PBMC", "test": "Bio-Plex multiplex, item: IL-4", "setting": "250 µg/mL, 24 h", "measurement": "cytokine level", "value": "1.2 ± 0.6 pg/mL"}
{"Compound": "CCCc1c(O)c(O)cc(C(=O)O)c1COC1OC(CO)C(O)C(O)C1O (centres unmarked)", "cell line": "HeLa, SW480 and HCT-116", "test": "CCK-8", "setting": "concentration not given, 12 h", "measurement": "cytotoxicity", "value": "not toxic"}
{"Compound": "CCCCCCCCCCCCCCCCCCCC(=O)N[C@@H](CCCCN)C(=O)N[C@@H](CCCCN)C(=O)N[C@@H](CCCCN)C(=O)N[C@@H](CCCCN)C(=O)N[C@@H](CCCCN)C(N)=O", "cell line": "human red blood cells", "test": "haemolysis", "measurement": "HC50", "value": "4.9 µg/mL"}
{"Compound": "Nc1ncnc2c1c(Br)cn2[C@@H]1O[C@H](CO)C[C@H]1O", "cell line": "MRC-5 SV2", "test": "cytotoxicity, resazurin", "test system": "medium with 5% FBS", "setting": "72 h", "measurement": "EC50", "value": "14.9 ± 3.4 µM"}
{"Compound": "CCCCCCc1ccc(S(=O)(=O)N2CC2C(=O)N(CC)CC)cc1 (centres unmarked)", "cell line": "Balb/c 3T3 fibroblasts", "test": "cytotoxicity, neutral red uptake", "test system": "DMEM with 5% FBS", "setting": "24 h", "measurement": "IC50", "value": "7.1 ± 1.4 µM"}
{"Compound": "CCCN(CC(=O)N(CCC)CC(=O)N(CCC)CC(=O)N(CCC)CC(=O)N(CC(=O)N(CCC)CC(=O)N(CCC)CC(=O)N(CCC)CC(=O)N(CCC)CC(=O)N(CC(N)=O)Cc1cn(CCCNC(=O)CCCOc2cccc(-c3nc4ccc(-c5nc6ccc(N7CCN(C)CC7)cc6[nH]5)cc4[nH]3)c2)nn1)Cc1cn(CCCNC(=O)CCCOc2cccc(-c3nc4ccc(-c5nc6ccc(N7CCN(C)CC7)cc6[nH]5)cc4[nH]3)c2)nn1)C(=O)CNCc1cn(CCCNC(=O)CCCOc2cccc(-c3nc4ccc(-c5nc6ccc(N7CCN(C)CC7)cc6[nH]5)cc4[nH]3)c2)nn1", "cell line": "C2C12", "test": "flow cytometry", "setting": "5 µM, 48 h", "measurement": "propidium iodide-only positive cells", "value": "0.24%"}
{"Compound": "CC1(C)CCCC(C)(C2CCC3(C)C2C(O)CC2C4(C)CCC(O)C(C)(C)C4C(OC(=O)Nc4ccccc4)CC23C)O1 (centres unmarked)", "cell line": "Hep3B", "test": "cell growth or viability, MTT", "setting": "24 h", "measurement": "IC50", "value": "> 30 µM"}
{"Compound": "C=Cc1cn([C@@H]2O[C@H](CO)C[C@H]2O)c2ncnc(N)c12", "cell line": "MRC-5 SV2", "test": "cytotoxicity, resazurin", "test system": "medium with 5% FBS", "setting": "72 h", "measurement": "EC50", "value": "25.6 ± 6.5 µM"}
{"Compound": "Cc1ccc(N2Cc3cc(NC(=O)N4CCN(c5cccc(C(F)(F)F)c5)CC4)ccc3C2=O)cc1", "cell line": "MRC-5 SV2", "setting": "concentration not given", "measurement": "cytotoxicity", "value": "not toxic"}
{"Compound": "COC(=O)NC(C(=O)NN(Cc1ccc(-c2cc3ccccc3s2)cc1)CC(O)(Cc1ccccc1)C(=O)NC1c2ccccc2CC1O)C(C)(C)C (centres unmarked)", "cell line": "Caco-2", "setting": "pH 7.4, 1% BSA in receiver", "measurement": "Papp B-to-A", "value": "1.7 ± 0.1 ×10⁻⁶ cm/s"}
{"Compound": "CCCCCCc1ccc(S(=O)(=O)N2CC2C(=O)N2CCCCC2)cc1 (centres unmarked)", "cell line": "Balb/c 3T3 fibroblasts", "test": "cytotoxicity, neutral red uptake", "test system": "DMEM with 5% FBS", "setting": "24 h", "measurement": "IC50", "value": "10 ± 1 µM"}
{"Compound": "CNC(=O)C(Cc1ccccc1)NC(=O)C(O)(Cc1ccccc1)CN(Cc1ccc(Br)cc1)NC(=O)C(NC(=O)OC)C(C)(C)C (centres unmarked)", "cell line": "Caco-2", "setting": "pH 7.4, 1% BSA in receiver", "measurement": "Papp A-to-B", "value": "68.1 ± 0.2 ×10⁻⁶ cm/s"}
{"Compound": "CC(C)=CCc1c2c(c(O)c3c(=O)c(-c4ccc(O)cc4)coc13)CC(C(C)(C)O)O2 (centres unmarked)", "cell line": "A549", "test": "cell growth or viability, MTT", "setting": "50 µg/mL", "measurement": "viability", "value": "5.57%"}
{"Compound": "CCCCCCCCCCCCCCCCCC(=O)O[C@@H](C(=O)O[C@H]1C[C@@]2(O)[C@@H](OC(=O)c3ccccc3)[C@@H]3[C@]4(OC(C)=O)CO[C@@H]4C[C@H](O)[C@@]3(C)C(=O)[C@H](O)C(=C1C)C2(C)C)[C@@H](NC(=O)OC(C)(C)C)c1ccccc1", "cell line": "DU-145", "test": "MTT", "setting": "48 h", "scale": "reference: docetaxel, higher = less active", "measurement": "potency relative to docetaxel", "value": "36.5 fold"}
{"Compound": "CC(C)=CCc1c(O)c(CC=C(C)C)c2occ(-c3ccc(O)c(O)c3)c(=O)c2c1O", "cell line": "RAW264.7", "test": "cell growth or viability, MTT", "setting": "12.5 µg/mL, 24 h", "measurement": "viability", "value": "90.3%"}
{"Compound": "COc1ccc(-n2cc(C(=O)OC3CC4(C)C(CC(O)C5C(C6(C)CCCC(C)(C)O6)CCC54C)C4(C)CCC(O)C(C)(C)C34)nn2)cc1 (centres unmarked)", "cell line": "Hep3B", "test": "cell growth or viability, MTT", "setting": "24 h", "measurement": "IC50", "value": "> 30 µM"}
{"Compound": "COc1cc(CN2CCN(c3ccccc3[N+](=O)[O-])CC2)c2cc3[n+](cc2c1O)CCc1cc2c(cc1-3)OCO2", "cell line": "MDCK", "test": "cell growth or viability, SRB", "setting": "48 h", "measurement": "CC50", "value": "129 µg/mL"}
{"Compound": "CCCCCc1ccc(S(=O)(=O)N2CC2C(=O)OC)cc1 (centres unmarked)", "cell line": "Balb/c 3T3 fibroblasts", "test": "cytotoxicity, neutral red uptake", "test system": "DMEM with 5% FBS", "setting": "24 h", "measurement": "IC50", "value": "120 ± 25 µM"}
{"Compound": "COc1ccc(C=CC(=O)OC2CC3(C)C(CC(O)C4C(C5(C)CCCC(C)(C)O5)CCC43C)C3(C)CCC(OC(=O)C=Cc4ccc(OC)cc4)C(C)(C)C23)cc1 (centres unmarked)", "cell line": "Hep3B", "test": "cell growth or viability, MTT", "setting": "24 h", "measurement": "IC50", "value": "> 30 µM"}
{"Compound": "COC(=O)C1CN1S(=O)(=O)c1ccc(C2CCCCC2)cc1 (centres unmarked)", "cell line": "Balb/c 3T3 fibroblasts", "test": "cytotoxicity, neutral red uptake", "test system": "DMEM with 5% FBS", "setting": "24 h", "measurement": "IC50", "value": "110 ± 1 µM"}
{"Compound": "COC(=O)NC(C(=O)NN(Cc1ccc(Br)cc1)CC(O)(Cc1ccccc1)C(=O)NCc1ccccc1)C(C)(C)C (centres unmarked)", "cell line": "Caco-2", "setting": "pH 7.4, 1% BSA in receiver", "measurement": "Papp B-to-A", "value": "26.3 ± 0.2 ×10⁻⁶ cm/s"}
{"Compound": "CC(C)[C@H](NC(=O)OC(C)(C)C)C(=O)OC1CC2(C)C(CC(O)C3C(C4(C)CCCC(C)(C)O4)CCC32C)C2(C)CCC(O)C(C)(C)C12 (some centres unmarked)", "cell line": "Hep3B", "test": "cell growth or viability, MTT", "setting": "24 h", "measurement": "IC50", "value": "> 30 µM"}
{"Compound": "CN(C)C(=O)C1CN1S(=O)(=O)c1ccc(C(F)(F)F)cc1 (centres unmarked)", "cell line": "Balb/c 3T3 fibroblasts", "test": "cytotoxicity, neutral red uptake", "test system": "DMEM with 5% FBS", "setting": "24 h", "measurement": "IC50", "value": "14 ± 1 µM"}
{"note": "A few entries again:"}
{"Compound": "COc1ccc(C=CC(=O)OC2CC3(C)C(CC(O)C4C(C5(C)CCCC(C)(C)O5)CCC43C)C3(C)CCC(OC(=O)C=Cc4ccc(OC)cc4)C(C)(C)C23)cc1 (centres unmarked)", "cell line": "Hep3B", "test": "cell growth or viability, MTT", "setting": "24 h", "measurement": "IC50", "value": "> 30 µM"}
{"Compound": "COC(=O)C1CN1S(=O)(=O)c1ccc(C2CCCCC2)cc1 (centres unmarked)", "cell line": "Balb/c 3T3 fibroblasts", "test": "cytotoxicity, neutral red uptake", "test system": "DMEM with 5% FBS", "setting": "24 h", "measurement": "IC50", "value": "110 ± 1 µM"}
{"Compound": "COC(=O)NC(C(=O)NN(Cc1ccc(Br)cc1)CC(O)(Cc1ccccc1)C(=O)NCc1ccccc1)C(C)(C)C (centres unmarked)", "cell line": "Caco-2", "setting": "pH 7.4, 1% BSA in receiver", "measurement": "Papp B-to-A", "value": "26.3 ± 0.2 ×10⁻⁶ cm/s"}
{"Compound": "CC(C)[C@H](NC(=O)OC(C)(C)C)C(=O)OC1CC2(C)C(CC(O)C3C(C4(C)CCCC(C)(C)O4)CCC32C)C2(C)CCC(O)C(C)(C)C12 (some centres unmarked)", "cell line": "Hep3B", "test": "cell growth or viability, MTT", "setting": "24 h", "measurement": "IC50", "value": "> 30 µM"}
